Experimental data pooled from the literature.
Protocols differ between the studies behind these lines. Numbers after ± are the reported error. Ends that are not written are not given here.
B1: PknH; chain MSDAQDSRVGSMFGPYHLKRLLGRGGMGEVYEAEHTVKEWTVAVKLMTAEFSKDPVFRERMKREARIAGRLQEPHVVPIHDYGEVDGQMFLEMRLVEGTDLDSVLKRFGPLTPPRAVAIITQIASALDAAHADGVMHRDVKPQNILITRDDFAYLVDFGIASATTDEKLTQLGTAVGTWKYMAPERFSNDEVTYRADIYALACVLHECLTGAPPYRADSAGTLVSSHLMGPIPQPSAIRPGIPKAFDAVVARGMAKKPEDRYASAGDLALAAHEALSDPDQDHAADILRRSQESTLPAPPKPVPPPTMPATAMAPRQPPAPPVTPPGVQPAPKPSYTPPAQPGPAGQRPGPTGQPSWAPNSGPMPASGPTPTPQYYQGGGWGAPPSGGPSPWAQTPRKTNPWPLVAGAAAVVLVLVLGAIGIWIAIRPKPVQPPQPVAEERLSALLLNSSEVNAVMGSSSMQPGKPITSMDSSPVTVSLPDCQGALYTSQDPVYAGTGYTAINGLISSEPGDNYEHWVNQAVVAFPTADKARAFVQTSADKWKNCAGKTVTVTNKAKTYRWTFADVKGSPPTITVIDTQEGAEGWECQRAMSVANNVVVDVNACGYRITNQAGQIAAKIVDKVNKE

| Substance | tested on | assay | system | setting | scale | endpoint | result |
| --- | --- | --- | --- | --- | --- | --- | --- |
| B1 (PknH) | Transcriptional regulatory protein EmbR (embR, Mycobacterium tuberculosis, UniProt P9WGJ9) | – | – | – | – | Kd | 0.069 ± 0.096 µM |
| DDX1 (Homo sapiens, UniProt Q92499) | Rev 1-116 C to S both cysteines, Alexa Fluor 555 label (HIV-1) | single-molecule TIRF | – | 150 nM, together with: AMP-PNP 1 mM | – | average Rev oligomer size | 3.81 Rev monomers |
| ACE2/pIgR VHH6 Fc fusion ACE2 , Fc fusion (Homo sapiens) | spike RBD RBD (SARS-CoV-2, UniProt P0DTC2) | BLI | – | – | – | koff | 1.82e-05 s⁻¹ |
| GCCSNPVCHLEHSNLC (α-conotoxin MII; not fully specified (C-terminus, bridges); cysteine pairing not given here; sequence looked up) | Chrna3/Chrnb2 (Mus musculus, UniProt Q8R4G9+Q9ERK7) | ion current | peptide, mouse | dose not given | – | current inhibition | 95% |
| L1/L2 (human papillomavirus 16) | ANXA2/S100A10 heterotetramer (Homo sapiens) | flow cytometry | LC | 48 hr, together with: HPV16 pseudovirions | higher = more MHC II | cell surface MHC II | 624 MFI |
| Nef homodimer, full length (HIV-1, UniProt P03407) | BTK SH3-SH2 dimer (Mus musculus) | SPR | – | – | – | Kd | 1.75 µM |
| pertussis toxin | ADRB2 (Homo sapiens, UniProt P07550) | HTRF, refers to: pERK/total ERK | HEK293 expressing ADRB2 | concentration not given, overnight | – | constitutive ERK1/2 phosphorylation | decreased |
| QLTPTWRVY | – | AIM | peptide, CD8+ T cells from PBMC, human donors | HLA-A*30:02 restricted, unit not given | relative to: positive over tested donors | frequency of responding donors | 100 |
| E1 N436A, x | itself | oligonucleotide displacement | – | – | relative to: wild-type E1, higher = greater defect | helicase activity defect | 2 fold |
| ITEEVGHTDLMAAY | – | AIM | peptide, CD8+ T cells from PBMC, human donors | HLA-A*01:01 restricted, unit not given | relative to: positive over tested donors | frequency of responding donors | 50 |
| MnTx-1 mature (Pterinochilus murinus, UniProt C0HMD2) | KCNA3 (Homo sapiens, UniProt P22001-1) | K+ current inhibition, inhibitor, patch-clamp | – | whole-cell | – | IC50 | 0.381 µM |
| RSV F/foldon soluble ectodomain S155C/S290C/D486H/E487Q/F488W/D489H (respiratory syncytial virus) | itself | SEC | – | – | – | subunits per oligomer | 3 |
| Spike receptor binding domain (SARS-CoV-2) | ACE2 recombinant ectodomain 18-740 (Homo sapiens, UniProt Q9BYF1) | SPR | – | – | – | kon | 493000 M⁻¹ s⁻¹ |
| BKRF4 fragment (Epstein-Barr virus) | H2A/H2B dimer (Homo sapiens) | ITC | – | 25 °C, NaCl 0.5 M | – | molecule per partner | 1 |
| QPLRKLCILHRNPGRCYQKIPAFYYNQKKKQCEGFTWSGCGGNSNRFKTIEECRRTCIRK (dendrotoxin I; ends and bridges not checked; cysteine pairing not given here; sequence looked up) | Kcnma1 (Rattus norvegicus, UniProt Q62976) | channel block | rat | together with: bound BP | relative to: BP-bound over unoccupied channel | affinity decrease | 8.4 fold |
| GRKKRRQRRRPQEDGGSFWYGAMKALYG (designed peptide) | CIB1 (Homo sapiens, UniProt Q99828) | competition with peptide, competitor, TR-FRET | peptide | – | – | IC50 | 0.192 ± 0.017 µM |

For quick reference, copied from above:
| Substance | tested on | assay | system | setting | scale | endpoint | result |
| --- | --- | --- | --- | --- | --- | --- | --- |
| QPLRKLCILHRNPGRCYQKIPAFYYNQKKKQCEGFTWSGCGGNSNRFKTIEECRRTCIRK (dendrotoxin I; ends and bridges not checked; cysteine pairing not given here; sequence looked up) | Kcnma1 (Rattus norvegicus, UniProt Q62976) | channel block | rat | together with: bound BP | relative to: BP-bound over unoccupied channel | affinity decrease | 8.4 fold |
| GRKKRRQRRRPQEDGGSFWYGAMKALYG (designed peptide) | CIB1 (Homo sapiens, UniProt Q99828) | competition with peptide, competitor, TR-FRET | peptide | – | – | IC50 | 0.192 ± 0.017 µM |
